Measurements gathered from unrelated publications.
Each line is one published result; not all experiments were run side by side. ≈ marks a conversion by molar mass, not a printed value.
Sequence of UniProt Q08499 (whole entry, looked up): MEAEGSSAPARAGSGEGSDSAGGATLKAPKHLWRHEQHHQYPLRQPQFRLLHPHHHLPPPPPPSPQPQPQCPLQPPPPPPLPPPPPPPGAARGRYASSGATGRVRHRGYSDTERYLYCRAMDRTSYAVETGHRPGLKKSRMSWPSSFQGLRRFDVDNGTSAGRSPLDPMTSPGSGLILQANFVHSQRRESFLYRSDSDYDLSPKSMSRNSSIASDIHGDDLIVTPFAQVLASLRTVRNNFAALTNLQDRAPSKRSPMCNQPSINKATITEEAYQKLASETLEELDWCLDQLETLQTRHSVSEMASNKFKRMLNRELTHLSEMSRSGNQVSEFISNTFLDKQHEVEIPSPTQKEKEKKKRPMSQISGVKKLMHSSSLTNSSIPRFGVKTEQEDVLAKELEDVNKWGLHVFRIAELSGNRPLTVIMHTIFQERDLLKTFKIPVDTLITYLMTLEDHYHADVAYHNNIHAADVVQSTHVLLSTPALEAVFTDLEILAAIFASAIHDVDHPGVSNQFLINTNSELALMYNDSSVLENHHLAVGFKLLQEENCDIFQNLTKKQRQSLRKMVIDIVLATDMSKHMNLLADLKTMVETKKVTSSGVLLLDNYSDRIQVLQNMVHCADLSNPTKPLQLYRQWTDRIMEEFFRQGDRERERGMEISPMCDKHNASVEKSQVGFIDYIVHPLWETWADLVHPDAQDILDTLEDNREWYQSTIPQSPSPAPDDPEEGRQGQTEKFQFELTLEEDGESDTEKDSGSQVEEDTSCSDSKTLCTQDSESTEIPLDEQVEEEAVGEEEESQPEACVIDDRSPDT
Sequence of UniProt P35372 (whole entry, looked up): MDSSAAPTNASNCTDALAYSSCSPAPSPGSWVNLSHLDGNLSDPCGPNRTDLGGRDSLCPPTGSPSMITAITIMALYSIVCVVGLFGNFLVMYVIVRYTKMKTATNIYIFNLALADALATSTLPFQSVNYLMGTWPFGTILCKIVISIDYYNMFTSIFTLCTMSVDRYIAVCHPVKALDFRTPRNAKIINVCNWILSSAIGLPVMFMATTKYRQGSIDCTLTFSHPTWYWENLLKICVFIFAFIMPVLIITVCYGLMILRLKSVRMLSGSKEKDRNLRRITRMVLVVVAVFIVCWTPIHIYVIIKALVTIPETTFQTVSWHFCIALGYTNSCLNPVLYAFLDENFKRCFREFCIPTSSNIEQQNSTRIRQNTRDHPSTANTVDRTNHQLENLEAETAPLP
Sequence of UniProt P12390 (whole entry, looked up): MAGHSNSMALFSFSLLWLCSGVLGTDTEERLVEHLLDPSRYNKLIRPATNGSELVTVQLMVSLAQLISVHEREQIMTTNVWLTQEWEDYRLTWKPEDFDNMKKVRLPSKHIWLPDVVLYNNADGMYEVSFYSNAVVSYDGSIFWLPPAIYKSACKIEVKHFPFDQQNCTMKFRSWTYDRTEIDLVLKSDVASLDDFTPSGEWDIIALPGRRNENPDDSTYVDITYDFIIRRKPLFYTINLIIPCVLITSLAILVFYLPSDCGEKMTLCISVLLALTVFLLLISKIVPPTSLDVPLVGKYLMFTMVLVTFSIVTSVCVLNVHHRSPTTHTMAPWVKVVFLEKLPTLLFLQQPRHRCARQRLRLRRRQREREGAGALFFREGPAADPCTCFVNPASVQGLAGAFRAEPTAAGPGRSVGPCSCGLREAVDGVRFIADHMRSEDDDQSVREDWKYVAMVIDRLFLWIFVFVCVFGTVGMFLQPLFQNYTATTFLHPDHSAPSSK
Sequence of UniProt P35626 (whole entry, looked up): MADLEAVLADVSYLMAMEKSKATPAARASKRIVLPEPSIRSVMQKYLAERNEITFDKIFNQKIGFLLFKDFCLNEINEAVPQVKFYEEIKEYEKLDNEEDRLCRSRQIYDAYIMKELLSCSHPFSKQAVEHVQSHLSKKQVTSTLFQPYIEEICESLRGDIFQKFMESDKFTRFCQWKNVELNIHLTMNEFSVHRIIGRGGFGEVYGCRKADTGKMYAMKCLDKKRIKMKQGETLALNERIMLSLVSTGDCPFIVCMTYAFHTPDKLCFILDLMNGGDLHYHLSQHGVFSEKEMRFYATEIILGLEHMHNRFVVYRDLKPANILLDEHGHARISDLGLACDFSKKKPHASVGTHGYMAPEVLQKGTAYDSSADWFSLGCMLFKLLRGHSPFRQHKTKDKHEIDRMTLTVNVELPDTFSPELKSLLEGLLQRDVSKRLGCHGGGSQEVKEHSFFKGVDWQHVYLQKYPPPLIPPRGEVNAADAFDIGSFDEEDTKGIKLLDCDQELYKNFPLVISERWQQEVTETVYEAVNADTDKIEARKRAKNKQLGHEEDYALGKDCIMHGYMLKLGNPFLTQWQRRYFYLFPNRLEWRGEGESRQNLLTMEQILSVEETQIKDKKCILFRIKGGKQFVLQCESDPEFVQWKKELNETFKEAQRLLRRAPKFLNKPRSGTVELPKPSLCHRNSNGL
Sequence of UniProt Q92918 (whole entry, looked up): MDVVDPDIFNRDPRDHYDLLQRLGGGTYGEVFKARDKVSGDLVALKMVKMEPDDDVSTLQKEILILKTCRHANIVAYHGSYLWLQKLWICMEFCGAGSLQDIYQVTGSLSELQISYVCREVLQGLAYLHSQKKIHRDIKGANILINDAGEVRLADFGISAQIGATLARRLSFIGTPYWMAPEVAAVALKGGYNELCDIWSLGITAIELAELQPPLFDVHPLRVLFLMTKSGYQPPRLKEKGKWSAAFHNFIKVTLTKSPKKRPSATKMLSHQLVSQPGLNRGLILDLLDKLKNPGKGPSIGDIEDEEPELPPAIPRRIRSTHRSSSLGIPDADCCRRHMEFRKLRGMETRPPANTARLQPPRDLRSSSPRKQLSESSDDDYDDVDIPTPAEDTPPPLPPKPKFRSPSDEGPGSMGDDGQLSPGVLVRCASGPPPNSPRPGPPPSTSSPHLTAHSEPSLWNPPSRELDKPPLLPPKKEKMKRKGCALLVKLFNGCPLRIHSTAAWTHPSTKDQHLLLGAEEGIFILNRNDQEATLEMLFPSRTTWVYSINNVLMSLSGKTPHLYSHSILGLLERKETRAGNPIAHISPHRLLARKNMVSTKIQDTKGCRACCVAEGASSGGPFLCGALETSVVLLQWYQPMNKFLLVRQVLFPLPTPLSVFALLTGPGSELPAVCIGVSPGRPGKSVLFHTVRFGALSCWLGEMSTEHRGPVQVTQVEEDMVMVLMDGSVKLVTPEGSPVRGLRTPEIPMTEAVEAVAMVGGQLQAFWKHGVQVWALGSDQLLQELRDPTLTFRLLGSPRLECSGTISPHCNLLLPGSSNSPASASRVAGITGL
Sequence of UniProt Q9BQI3 (whole entry, looked up): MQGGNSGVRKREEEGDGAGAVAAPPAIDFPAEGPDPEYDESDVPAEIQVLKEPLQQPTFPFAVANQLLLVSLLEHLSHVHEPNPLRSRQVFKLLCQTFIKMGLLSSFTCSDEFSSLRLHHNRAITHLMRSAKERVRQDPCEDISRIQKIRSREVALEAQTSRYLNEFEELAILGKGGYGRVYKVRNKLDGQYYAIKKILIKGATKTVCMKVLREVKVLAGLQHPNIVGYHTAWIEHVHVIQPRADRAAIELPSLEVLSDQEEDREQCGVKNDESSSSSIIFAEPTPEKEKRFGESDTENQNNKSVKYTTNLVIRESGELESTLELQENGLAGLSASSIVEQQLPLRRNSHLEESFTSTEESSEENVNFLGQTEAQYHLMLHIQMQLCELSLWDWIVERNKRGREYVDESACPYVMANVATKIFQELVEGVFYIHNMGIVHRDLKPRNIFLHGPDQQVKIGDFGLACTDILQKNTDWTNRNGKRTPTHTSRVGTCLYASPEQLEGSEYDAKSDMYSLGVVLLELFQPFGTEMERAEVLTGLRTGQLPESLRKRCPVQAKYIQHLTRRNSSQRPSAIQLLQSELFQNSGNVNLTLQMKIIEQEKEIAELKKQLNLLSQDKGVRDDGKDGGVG
Sequence of UniProt P23458 (whole entry, looked up): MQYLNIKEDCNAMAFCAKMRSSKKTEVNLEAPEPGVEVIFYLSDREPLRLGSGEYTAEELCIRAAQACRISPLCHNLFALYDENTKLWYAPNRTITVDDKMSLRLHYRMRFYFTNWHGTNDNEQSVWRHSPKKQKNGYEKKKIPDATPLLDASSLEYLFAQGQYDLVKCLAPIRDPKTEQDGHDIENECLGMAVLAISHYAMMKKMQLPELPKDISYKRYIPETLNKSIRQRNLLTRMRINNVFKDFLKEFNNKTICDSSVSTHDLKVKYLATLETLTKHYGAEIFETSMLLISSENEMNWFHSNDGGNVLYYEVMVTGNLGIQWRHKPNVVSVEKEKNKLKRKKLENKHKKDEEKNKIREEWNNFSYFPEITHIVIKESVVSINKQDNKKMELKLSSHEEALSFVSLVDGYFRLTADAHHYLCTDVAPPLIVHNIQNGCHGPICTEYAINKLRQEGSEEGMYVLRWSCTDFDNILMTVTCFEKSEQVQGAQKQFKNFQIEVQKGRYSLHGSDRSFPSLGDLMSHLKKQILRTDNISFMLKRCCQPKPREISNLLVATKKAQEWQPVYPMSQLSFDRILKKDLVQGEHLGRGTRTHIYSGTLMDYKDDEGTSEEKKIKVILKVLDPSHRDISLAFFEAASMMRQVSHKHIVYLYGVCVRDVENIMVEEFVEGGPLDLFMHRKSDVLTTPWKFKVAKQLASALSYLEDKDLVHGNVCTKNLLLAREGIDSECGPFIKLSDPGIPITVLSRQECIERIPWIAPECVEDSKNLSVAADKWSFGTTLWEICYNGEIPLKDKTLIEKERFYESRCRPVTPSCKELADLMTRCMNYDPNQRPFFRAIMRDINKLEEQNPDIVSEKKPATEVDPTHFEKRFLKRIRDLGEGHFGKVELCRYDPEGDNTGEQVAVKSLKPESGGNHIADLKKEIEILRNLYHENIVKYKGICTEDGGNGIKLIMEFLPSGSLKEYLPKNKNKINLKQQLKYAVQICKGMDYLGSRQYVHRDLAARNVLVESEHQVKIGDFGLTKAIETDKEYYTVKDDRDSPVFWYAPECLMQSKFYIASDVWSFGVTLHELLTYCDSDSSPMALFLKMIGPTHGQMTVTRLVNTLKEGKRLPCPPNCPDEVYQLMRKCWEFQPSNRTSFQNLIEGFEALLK

Compound	tested on	assay	test system	setting	quantity	value
Cc1nn(C)cc1-c1nc2c(N3CCN(Cc4ccc(Cl)cc4)CC3)c(Cl)cnc2[nH]1	EIF2AK1 (Homo sapiens, UniProt Q9BQI3)	binding, competition with immobilised ligand	–	1 µM	remaining binding	100%
Nc1ncc(-c2nc(N3CCOCC3)nc(N3CCOCC3)n2)c(C(F)F)n1	Tyrosine-protein kinase JAK1, JH2 (JAK1, Homo sapiens, UniProt P23458)	binding, competition with immobilised ligand	–	10 µM	remaining binding	0.05%
C#Cc1ccc2c(c1)C(c1ccccn1)=NCc1c(-c3cnco3)ncn1-2	–	–	water	10 min, 37 °C	kinetic solubility	174 µg/mL (≈ 495 µM)
C=CCN1C[C@H]2CC[C@@H](C1)N2c1cccc(O)c1	OPRM1 (Homo sapiens, UniProt P35372)	cAMP, agonist	OPRM1	–	Emax	85.8%
CCCCC/C=C\C/C=C\C/C=C\Cc1ccccc1CCCC(=O)OC(CO)CO	CNR2 (Homo sapiens, UniProt P34972)	β-arrestin recruitment, agonist	–	–	Emax	69%
[2H]c1c([2H])c([C@]2([2H])CCCN2C(=O)C(C)(C)Oc2ccc3cn[nH]c3c2)c([2H])c([2H])c1C([2H])([2H])[2H]	GRK3 (Homo sapiens, UniProt P35626)	binding, competition with immobilised ligand	–	1 µM	remaining binding	58%
N.N.[Cl][Pt][Cl]	SU-DHL-4	cell growth or viability, ATP luminescence	–	10 µM, 72 h	inhibition	100%
CN1CCC[C@H]1c1cccnc1	Neuronal acetylcholine receptor; alpha2/beta2 (Rattus norvegicus, UniProt P12389+P12390)	ligand displacement, radioligand	–	50 µM	inhibition	96.3%
COc1ncccc1-c1cnn2ccc(N3CCN(C(=O)OC(C)C)CC3)nc12	STK3 (Homo sapiens, UniProt Q13188)	binding, competition with immobilised ligand	–	1 µM	remaining binding	62%
COc1ccc(Nc2nn3c(-c4ccccc4)ccnc3c2C(=O)Nc2ccc(Cl)cc2)cc1	Caco-2	cell growth or viability, MTT	–	50 µg/mL, 48 h, serum-free	viability	16%
Cc1sc2c(c1C)C(c1ccc(Cl)cc1)=N[C@@H](CC(=O)OC(C)(C)C)c1nnc(C)n1-2	OCI-Ly1	cell growth or viability, ATP luminescence	–	0.1 µM, 5 days	viability	47%
CC(C)CC(=O)OC[C@H]1O[C@@](C#N)(c2ccc3c(N)ncnn23)[C@H](O)[C@@H]1O	PDE4D (Homo sapiens, UniProt Q08499)	enzyme activity, inhibitor	–	20 µM	inhibition	5%
C#Cc1n[nH]c2c(-c3cn([C@@H](C)c4ccccn4)c(=O)[nH]c3=O)cc(F)cc12	MAP4K1 (Homo sapiens, UniProt Q92918)	enzyme activity, inhibitor	–	0.1 µM	inhibition	-1.4%
